Measurements of several laboratories.
Compare with care: the assays were run in different laboratories. ± marks the error that the study gave.
ALB: Albumin (ALB, Bos taurus, UniProt P02769)
Chain of UniProt P02769 (whole entry, looked up): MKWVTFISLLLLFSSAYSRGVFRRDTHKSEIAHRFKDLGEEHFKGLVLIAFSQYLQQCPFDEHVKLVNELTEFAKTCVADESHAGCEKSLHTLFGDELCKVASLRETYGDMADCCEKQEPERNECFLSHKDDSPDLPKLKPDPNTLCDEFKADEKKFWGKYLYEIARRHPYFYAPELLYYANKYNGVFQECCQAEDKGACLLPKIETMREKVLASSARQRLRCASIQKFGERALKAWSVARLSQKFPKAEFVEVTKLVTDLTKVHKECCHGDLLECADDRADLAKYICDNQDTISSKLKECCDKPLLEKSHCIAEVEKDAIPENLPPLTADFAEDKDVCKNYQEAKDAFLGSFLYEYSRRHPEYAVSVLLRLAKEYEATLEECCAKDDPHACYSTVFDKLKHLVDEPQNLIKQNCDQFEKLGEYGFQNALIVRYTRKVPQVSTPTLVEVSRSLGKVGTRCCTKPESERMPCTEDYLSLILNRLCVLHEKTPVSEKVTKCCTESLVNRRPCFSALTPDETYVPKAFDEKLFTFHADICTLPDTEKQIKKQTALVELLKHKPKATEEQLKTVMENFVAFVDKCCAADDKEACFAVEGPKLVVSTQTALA
CYP11A1: Cholesterol side-chain cleavage enzyme, mitochondrial (CYP11A1, Homo sapiens, UniProt P05108)
Chain of UniProt P05108 (whole entry, looked up): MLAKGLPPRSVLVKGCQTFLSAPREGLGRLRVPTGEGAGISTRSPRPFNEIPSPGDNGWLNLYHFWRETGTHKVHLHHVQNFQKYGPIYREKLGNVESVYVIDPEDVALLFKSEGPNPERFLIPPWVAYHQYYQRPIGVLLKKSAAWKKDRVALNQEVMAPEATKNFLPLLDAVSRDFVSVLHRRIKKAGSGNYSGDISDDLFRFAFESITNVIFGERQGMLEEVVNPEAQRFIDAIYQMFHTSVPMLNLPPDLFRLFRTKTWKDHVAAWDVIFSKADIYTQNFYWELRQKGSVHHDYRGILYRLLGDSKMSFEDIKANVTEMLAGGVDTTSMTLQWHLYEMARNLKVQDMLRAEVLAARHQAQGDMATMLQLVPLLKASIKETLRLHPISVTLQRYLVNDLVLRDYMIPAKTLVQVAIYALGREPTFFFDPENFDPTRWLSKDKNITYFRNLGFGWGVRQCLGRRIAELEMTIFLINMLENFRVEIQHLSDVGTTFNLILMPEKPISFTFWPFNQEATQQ
Chain of UniProt O43704 (whole entry, looked up): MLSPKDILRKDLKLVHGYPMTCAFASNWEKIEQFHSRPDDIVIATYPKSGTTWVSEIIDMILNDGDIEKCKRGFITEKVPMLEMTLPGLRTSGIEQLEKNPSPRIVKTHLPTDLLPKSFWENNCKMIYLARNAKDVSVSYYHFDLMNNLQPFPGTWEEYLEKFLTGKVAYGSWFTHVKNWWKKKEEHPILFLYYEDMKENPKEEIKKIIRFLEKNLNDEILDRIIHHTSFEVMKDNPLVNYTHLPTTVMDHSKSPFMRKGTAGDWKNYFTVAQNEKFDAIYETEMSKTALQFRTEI
Chain of UniProt P51589 (whole entry, looked up): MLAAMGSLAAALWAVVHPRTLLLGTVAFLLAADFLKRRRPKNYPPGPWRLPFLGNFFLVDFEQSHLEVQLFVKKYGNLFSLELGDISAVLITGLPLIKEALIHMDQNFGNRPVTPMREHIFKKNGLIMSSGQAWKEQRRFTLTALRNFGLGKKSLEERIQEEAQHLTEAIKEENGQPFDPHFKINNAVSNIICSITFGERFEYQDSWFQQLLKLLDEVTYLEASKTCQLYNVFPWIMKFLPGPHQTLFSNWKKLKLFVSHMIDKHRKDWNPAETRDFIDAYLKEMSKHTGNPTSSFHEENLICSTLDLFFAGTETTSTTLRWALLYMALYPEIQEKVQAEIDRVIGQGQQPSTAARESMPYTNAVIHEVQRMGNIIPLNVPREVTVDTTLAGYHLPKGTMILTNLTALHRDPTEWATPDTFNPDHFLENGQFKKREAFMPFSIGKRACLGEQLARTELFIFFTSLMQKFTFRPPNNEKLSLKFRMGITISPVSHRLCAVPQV
Chain of UniProt Q01740 (whole entry, looked up): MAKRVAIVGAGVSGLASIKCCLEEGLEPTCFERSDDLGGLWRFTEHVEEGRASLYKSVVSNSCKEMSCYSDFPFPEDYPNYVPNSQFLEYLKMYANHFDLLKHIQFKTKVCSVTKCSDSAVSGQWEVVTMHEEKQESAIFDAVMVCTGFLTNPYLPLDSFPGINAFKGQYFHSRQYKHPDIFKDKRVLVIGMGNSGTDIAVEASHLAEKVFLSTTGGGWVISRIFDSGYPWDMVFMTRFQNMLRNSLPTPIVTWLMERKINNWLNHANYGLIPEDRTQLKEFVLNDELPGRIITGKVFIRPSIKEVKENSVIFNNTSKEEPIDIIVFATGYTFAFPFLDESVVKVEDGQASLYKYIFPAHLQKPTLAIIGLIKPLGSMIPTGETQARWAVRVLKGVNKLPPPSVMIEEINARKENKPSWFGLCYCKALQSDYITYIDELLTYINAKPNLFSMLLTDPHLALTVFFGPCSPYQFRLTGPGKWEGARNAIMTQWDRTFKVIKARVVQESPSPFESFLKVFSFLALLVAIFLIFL
Chain of UniProt P04798 (whole entry, looked up): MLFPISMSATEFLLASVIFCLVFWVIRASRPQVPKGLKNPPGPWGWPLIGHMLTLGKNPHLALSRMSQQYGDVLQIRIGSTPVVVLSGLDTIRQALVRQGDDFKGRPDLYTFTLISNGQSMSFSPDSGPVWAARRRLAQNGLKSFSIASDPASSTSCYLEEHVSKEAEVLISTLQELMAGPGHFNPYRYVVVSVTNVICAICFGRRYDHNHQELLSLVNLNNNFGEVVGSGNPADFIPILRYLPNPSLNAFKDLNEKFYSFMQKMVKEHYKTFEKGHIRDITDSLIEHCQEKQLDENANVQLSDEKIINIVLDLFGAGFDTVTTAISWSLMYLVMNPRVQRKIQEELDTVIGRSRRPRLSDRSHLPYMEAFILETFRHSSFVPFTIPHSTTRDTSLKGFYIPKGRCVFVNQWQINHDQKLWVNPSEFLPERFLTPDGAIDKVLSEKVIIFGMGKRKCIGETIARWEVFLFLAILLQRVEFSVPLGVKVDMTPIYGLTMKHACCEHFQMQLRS
Chain of UniProt P16257 (whole entry, looked up): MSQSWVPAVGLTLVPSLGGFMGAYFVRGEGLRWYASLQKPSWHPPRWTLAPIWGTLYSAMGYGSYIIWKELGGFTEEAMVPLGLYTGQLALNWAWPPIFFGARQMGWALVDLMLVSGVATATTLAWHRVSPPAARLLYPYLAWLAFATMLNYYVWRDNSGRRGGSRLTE
Chain of UniProt P08684 (whole entry, looked up): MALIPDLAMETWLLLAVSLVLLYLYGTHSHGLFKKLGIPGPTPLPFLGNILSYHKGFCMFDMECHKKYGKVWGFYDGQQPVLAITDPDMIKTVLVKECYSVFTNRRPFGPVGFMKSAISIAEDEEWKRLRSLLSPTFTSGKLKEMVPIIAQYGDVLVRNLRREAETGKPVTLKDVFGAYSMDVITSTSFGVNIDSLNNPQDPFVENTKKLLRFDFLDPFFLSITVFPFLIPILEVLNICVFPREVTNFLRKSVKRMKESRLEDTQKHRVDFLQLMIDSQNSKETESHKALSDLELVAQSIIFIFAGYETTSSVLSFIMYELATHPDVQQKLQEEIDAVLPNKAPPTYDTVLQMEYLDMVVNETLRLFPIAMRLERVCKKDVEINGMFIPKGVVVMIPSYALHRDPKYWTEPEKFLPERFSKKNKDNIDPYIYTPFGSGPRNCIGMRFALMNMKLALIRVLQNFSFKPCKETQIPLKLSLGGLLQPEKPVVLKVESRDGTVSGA

SMILES = CCC(=O)N(C)c1ccc(Cl)c(Cl)c1; target = ALB; test = BSA binding, fluorescence quenching; test system = bovine serum albumin solution; setting = 15 to 150 µM, 1 h, added: BSA 7.5 µM; scale = relative to: diclofenac; measurement = remaining binding; value = ≤ 25%
SMILES = COc1ccc2cc(NC(=O)c3cc(-c4ccncc4)nc4ccccc34)ccc2c1; target = Cytochrome P450 3A4 (CYP3A4, Homo sapiens, UniProt P08684); test = substrate, refers to: metabolites M1 plus M2; test system = baculosomes; measurement = kcat; value = 0.0172 s⁻¹
SMILES = COc1ccc(S(=O)(=O)NCc2c[nH]nc2-c2cccs2)cc1; target = Albumin, lipid-rich (ALB, Bos taurus, UniProt P02769); setting = bovine; measurement = protein binding; value = 44%
SMILES = COc1cc2oc(-c3ccccc3)cc(=O)c2c(O)c1O; target = Fe(III); test = spectrophotometric titration; test system = methanol/water 80/20 w/w; setting = 25.0 °C, ionic strength 0.1 M, pH 2.0; measurement = log conditional stability constant; value = 5.4
SMILES = CCc1cc(C)n2nc(-c3ccc(OCC[18F])cc3)c(CC(=O)N(CC)CC)c2n1; target = Translocator protein (Tspo, Rattus norvegicus, UniProt P16257); test = two-tissue compartment model; test system = rat C6 glioma model, brain; setting = dose not given, 60 min dynamic PET; measurement = total distribution volume; value = 7.42 ± 0.931 mL/cm3
SMILES = COC(=O)c1ccc(/C=N/NS(=O)(=O)c2ccc(OC)c(OC)c2)cc1; target = carboxylesterase rat; test = substrate; test system = Wistar rat liver microsomes; setting = 10 µM, 20 min, 37 °C, added: bis(p-nitrophenyl)phosphate 100 µM; measurement = inhibition of metabolism; value = ~100%
SMILES = [64Cu+2].c1ccc(CNCc2ccc(CN3CCCN4CCNCCCN(CC4)CC3)cc2)nc1; target = CXCR4; test system = NOD/SCID mouse, U87 and U87-stb-CXCR4 xenografts, pancreas; setting = iv, 240 min, ex vivo; measurement = tissue uptake; value = 1.7 ± 0.2 %ID/g
SMILES = Cc1cccc(C)c1OCC(N)c1ccccc1 (centres unmarked); target = Flavin-containing monooxygenase 1 (Homo sapiens, UniProt Q01740); test = substrate; test system = purified enzyme; setting = 88 µM, 30 min, pH 8.4, 37 °C; measurement = metabolic rate; value = 0.73 ± 0.01 nmol/min/mg protein
SMILES = C=C1CCC(O)CC1=CC=C1CCCC2(C)C1CCC2C(C)(O)CCCCCC (centres unmarked); target = CYP11A1; test = substrate; setting = 50 µM, 2 h, 0.45% cyclodextrin, 1 µM enzyme; measurement = number of products; value = 7
SMILES = CN(C)C(=S)N(C)N=Cc1ccccc1SSc1ccccc1C=NN(C)C(=S)N(C)C; target = ALB; test = optical absorption spectra; setting = added: BSA 40 µM; measurement = adduct stability time; value = ≥ 8 h
SMILES = O=C(O[C@@H]1Cc2c(O)cc(O)cc2O[C@@H]1c1cc(O)c(O)c(O)c1)c1cc(O)c(O)c(O)c1; target = ALB; test = compound stability, HPLC; setting = 25 µM, 40 min, pH 7.4, 37 °C, added: albumin 30 µM; measurement = remaining compound; value = 65.8%
SMILES = [2H]c1c(NS(C)(=O)=O)c([2H])c2c(C(=O)c3ccc(OCCCN(CCCC)CCCC)cc3)c(CCCC)oc2c1[2H]; target = Cytochrome P450 2J2 (CYP2J2, Homo sapiens, UniProt P51589); test system = recombinant enzyme; setting = 1 µM; measurement = intrinsic clearance; value = 0.65 µL/min/pmol
SMILES = C=C1CCC(O)CC1=CC=C1CCCC2(C)C1CCC2C(C)(O)c1ccccc1 (centres unmarked); target = CYP11A1; test = substrate; setting = 50 µM, 2 h, 0.45% cyclodextrin, 1 µM enzyme; measurement = substrate conversion; value = 83%
SMILES = [64Cu+2].c1cnc(CNCc2ccc(CN3CCCN4CCNCCCN(CC4)CC3)cc2)nc1; target = CXCR4; test system = NOD/SCID mouse, U87 and U87-stb-CXCR4 xenografts, pancreas; setting = iv, 90 min, no blocking dose, ex vivo; measurement = tissue uptake; value = 0.77 ± 0.14 %ID/g
SMILES = COc1cc2oc(-c3ccc(F)cc3)cc(=O)c2c(O)c1O; target = Fe(III); test = spectrophotometric titration; test system = methanol/water 80/20 w/w; setting = 25.0 °C, ionic strength 0.1 M, pH 2.0; measurement = log conditional stability constant; value = 4.7
SMILES = COc1c(C(=O)/C=C/c2ccccc2)c(O)c(OC)c2occc12; target = Cytochrome P450 1A1 (CYP1A1, Homo sapiens, UniProt P04798); test system = HEK293 overexpressing CYP1A1; setting = 10 µM; measurement = inhibition; value = 97%
SMILES = COc1cc2oc(-c3ccc(C(F)(F)F)cc3F)cc(=O)c2c(O)c1O; target = Fe(III); test = spectrophotometric titration; test system = methanol/water 80/20 w/w; setting = 25.0 °C, ionic strength 0.1 M, pH 2.0; measurement = log conditional stability constant; value = 5.8
SMILES = O=C(O)C(O)Cc1ccc(O)c(O)c1 (centres unmarked); target = Sulfotransferase 1B1 (SULT1B1, Homo sapiens, UniProt O43704); test = sulfation, substrate, cDNA-expressed enzyme; setting = 500 µM, 120 min; scale = relative to: SULT1A3; measurement = relative activity; value = 18%
SMILES = C=C1CCC(O)CC1=CC=C1CCCC2(C)C1CCC2C(C)(C)O (centres unmarked); target = CYP11A1; test = substrate; setting = 50 µM, 2 h, 0.45% cyclodextrin, 1 µM enzyme; measurement = number of products; value = 0
SMILES = O=C(O)[C@@H]1C[C@@H](O)CN1C(=O)[C@@H]1CCCN1; target = iron(III) ion; test = complex formation, Van't Hoff plot; test system = aqueous 0.15 M NaCl; setting = MAH−2 complex species; measurement = ΔS; value = -1.73 kJ/mol/K

For quick reference, copied from above:
SMILES = CN(C)C(=S)N(C)N=Cc1ccccc1SSc1ccccc1C=NN(C)C(=S)N(C)C; target = ALB; test = optical absorption spectra; setting = added: BSA 40 µM; measurement = adduct stability time; value = ≥ 8 h
SMILES = O=C(O[C@@H]1Cc2c(O)cc(O)cc2O[C@@H]1c1cc(O)c(O)c(O)c1)c1cc(O)c(O)c(O)c1; target = ALB; test = compound stability, HPLC; setting = 25 µM, 40 min, pH 7.4, 37 °C, added: albumin 30 µM; measurement = remaining compound; value = 65.8%
